Published values from different studies.
Compare with care: the assays were run in different laboratories. ± gives the spread as reported.

N=C(N)NCCC[C@H](NC(=O)[C@H](CCCNC(=N)N)NC(=O)[C@H](CCCNC(=N)N)NC(=O)[C@H](CCC(N)=O)NC(=O)[C@H](CCCNC(=N)N)NC(=O)[C@H](CCCNC(=N)N)NC(=O)[C@H](CCCCN)NC(=O)[C@H](CCCCN)NC(=O)[C@H](CCCNC(=N)N)NC(=O)CNC(=O)[C@H](Cc1ccc(O)cc1)NC(=O)[C@H](Cc1ccccc1)NC(=O)[C@H](Cc1ccccc1)NC(=O)[C@H](Cc1ccccc1)NC(=O)Cc1ccc2ccccc2c1)C(=O)O
health score (C57BL/6 mice; intraperitoneal, 10 mg/kg, 2 h; direction not given): 5

CC(C(=O)O)n1nc(Cn2cc3cc(OCC[18F])c(Cl)cc3n2)c2ccccc2c1=O (racemic)
SUV (microPET; cynomolgus monkey, brain; post injection, 0-120 min): < 0.15

CC(=O)c1c(C)c2cnc(Nc3ccc(N4CCNCC4)cn3)nc2n(C2CCCC2)c1=O
white blood cell count (C57BL/6 mice, blood; 25 mg/kg, P25, dosed P10 to P24): 3.6 ± 1.3 10⁹/liter

CSCC[C@H](N)C(=O)N[C@@H](C)C(=O)N[C@@H](CCCNC(=N)N)C(=O)N[C@@H](CCCNC(=N)N)C(=O)N[C@@H](CC(=O)O)C(=O)N[C@@H](CCCCN)C(=O)N[C@H](C(=O)N[C@@H](CC(=O)O)C(=O)N[C@@H](Cc1ccccc1)C(=O)N[C@@H](C)C(=O)N[C@@H](CCCNC(=N)N)C(=O)N[C@@H](CCCNC(=N)N)C(=O)N[C@@H](CCCNC(=N)N)C(=O)N[C@@H](CCCNC(=N)N)C(=O)NCCCCCC(=O)NCCCCC(NC(=O)CCCCCNC(=O)[C@H](CCCNC(=N)N)NC(=O)[C@H](CCCNC(=N)N)NC(=O)[C@H](CCCNC(=N)N)NC(=O)[C@H](CCCNC(=N)N)NC(=O)[C@H](C)NC(=O)[C@H](Cc1ccccc1)NC(=O)[C@H](CC(=O)O)NC(=O)[C@@H](NC(=O)[C@H](CCCCN)NC(=O)[C@H](CC(=O)O)NC(=O)[C@H](CCCNC(=N)N)NC(=O)[C@H](CCCNC(=N)N)NC(=O)[C@H](C)NC(=O)[C@@H](N)CCSC)[C@@H](C)O)C(=O)NCCCCC(NC(=O)C(CCCCNC(=O)CCCCCNC(=O)[C@H](CCCNC(=N)N)NC(=O)[C@H](CCCNC(=N)N)NC(=O)[C@H](CCCNC(=N)N)NC(=O)[C@H](CCCNC(=N)N)NC(=O)[C@H](C)NC(=O)[C@H](Cc1ccccc1)NC(=O)[C@H](CC(=O)O)NC(=O)[C@@H](NC(=O)[C@H](CCCCN)NC(=O)[C@H](CC(=O)O)NC(=O)[C@H](CCCNC(=N)N)NC(=O)[C@H](CCCNC(=N)N)NC(=O)[C@H](C)NC(=O)[C@@H](N)CCSC)[C@@H](C)O)NC(=O)CCCCCNC(=O)[C@H](CCCNC(=N)N)NC(=O)[C@H](CCCNC(=N)N)NC(=O)[C@H](CCCNC(=N)N)NC(=O)[C@H](CCCNC(=N)N)NC(=O)[C@H](C)NC(=O)[C@H](Cc1ccccc1)NC(=O)[C@H](CC(=O)O)NC(=O)[C@@H](NC(=O)[C@H](CCCCN)NC(=O)[C@H](CC(=O)O)NC(=O)[C@H](CCCNC(=N)N)NC(=O)[C@H](CCCNC(=N)N)NC(=O)[C@H](C)NC(=O)[C@@H](N)CCSC)[C@@H](C)O)C(N)=O)[C@@H](C)O (stereo partly shown)
mean tissue distribution (C57BL/6 mouse female, spine; dose not given, 3 h; reference: total): 7.17%

O=C1CC[C@H](N2Cc3cc(N4CCNCC4)ccc3C2=O)C(=O)N1
share of plasma AUC(0-72h) (female Sprague-Dawley rat, pooled plasma; oral, 20 mg/kg): 12.2%

CCCCC[C@@H]1NC(=O)[C@@H](C)N(C)C(=O)[C@H](CCCCC)NC(=O)[C@@H](C)N(C)C(=O)[C@H](CCCCC)N(C)C(=O)[C@@H](C)N(C)C(=O)[C@H](CCCCC)NC(=O)[C@@H](C)N(C)C1=O
log Papp (PAMPA; 500 µM, pH 7.4): 2.34 ×10⁻⁶ cm/s

CC[C@H](C)[C@H](NC(=O)[C@H](CCCCN)NC(=O)CNC(=O)[C@H](CC(C)C)NC(=O)[C@H](Cc1ccccc1)NC(=O)[C@H](CCCCN)NC(=O)[C@H](CO)NC(=O)[C@H](Cc1ccccc1)NC(=O)[C@H](Cc1c[nH]c2ccccc12)NC(=O)[C@H](CCC(N)=O)NC(=O)[C@@H](NC(=O)[C@H](Cc1ccccc1)NC(=O)CCCCCNC(=O)CN1CCN(CC(=O)O)CCN(CC(=O)O)CCN(CC(=O)O)CC1)C(C)C)C(=O)N[C@@H](CCC(=O)O)C(=O)N1CCC[C@H]1C(=O)N[C@@H](CC(=O)O)C(=O)N[C@H](C(=O)N[C@@H](CO)C(=O)N[C@@H](CCC(N)=O)C(=O)N[C@H](C(=O)N[C@@H](CCC(N)=O)C(=O)N[C@@H](CC(=O)O)C(=O)N1CCC[C@H]1C(=O)N[C@@H](CC(N)=O)C(=O)N[C@@H](CC(=O)O)C(=O)N[C@@H](CCC(N)=O)C(=O)N[C@@H](Cc1ccc(O)cc1)C(=O)N[C@@H](CCC(=O)O)C(=O)N1CCC[C@H]1C(=O)N[C@@H](Cc1ccccc1)C(=O)O)C(C)C)C(C)C [copper-64 labelled]
tissue uptake (C57BL/6 mice, male, naive, brown fat; 4 h): 3.25 ± 0.8 %ID/g

COc1nc(CC=C(C)CC=CC(C)=CC(C)C(OC2OC(CO)C(O)C(O)C2O)C(C)=CCO)c(C)c(O)c1OC (stereo not shown)
Km (glucuronidation, substrate; human liver microsomes; 15 min, pH 7.4): 39.05 ± 0.36 µM

COc1cccc(O)c1C(=O)/C=C/c1ccc2cc(N3CCCC3)ccc2c1
tissue concentration (C57BL/6J mice, kidney; intraperitoneal, 50 mg/kg single, 2 h): 94.4 ng/g

CN1Cc2cc(Cl)ccc2-n2c(nnc2C2CCN(c3cccc(F)n3)CC2)C1
concentration (Sprague-Dawley rats male, pituitary; intravenous, 0.03 mg/kg, 30 min): 11.9 ± 1.21 ng/mL

Cc1ccccc1-c1ccc(-c2nc(-c3ccc(CN(C)CCCC(=O)O)c([18F])c3)no2)cc1C(F)(F)F
tracer uptake (rat, heart; 30 min): 0.38 %ID/g

O=C1NC2(CC2)COc2ncc(F)cc2[C@H]2COCCN2c2ccn3ncc1c3n2
lymphocyte percentage (Sprague-Dawley rat, male, blood; oral, 5 mg/kg/day, 4 weeks, end of recovery, subacute toxicity): 85.7 ± 0.9%

N#[11C]c1ccc(-c2csc(NN=C3CCCC3)n2)cc1
radioactivity uptake (C57BL/6 mice, male, bladder; intravenous, 3 MBq, 30 min): 11.5 ± 2.79 %ID/g

Excerpt of the above:
CC(C(=O)O)n1nc(Cn2cc3cc(OCC[18F])c(Cl)cc3n2)c2ccccc2c1=O (racemic)
SUV (microPET; cynomolgus monkey, brain; post injection, 0-120 min): < 0.15
